# Published values gathered from unrelated publications.
# Each line is one published result; not all experiments were run side by side. Values joined by “and” are separate records of one study, mostly repeats; a detail may differ. ± marks the error that the study gave.
# Nr3c1: Glucocorticoid receptor (Nr3c1, Rattus norvegicus, UniProt P06536)
# F10: Coagulation factor X (F10, Bos taurus, UniProt P00743)
# CASP4: Caspase-4 (CASP4, Homo sapiens, UniProt P49662)
# APP: Amyloid-beta precursor protein (APP, Homo sapiens, UniProt P05067)
Molecule,target,assay,test system,conditions,scale,endpoint,value
CCCCC/C=C\S/C=C\CCCCCCCC(=O)O,"Seed linoleate 13S-lipoxygenase-1 (Glycine max, UniProt P08170)",inhibitor,,"pH 10.0, noncompetitive inhibition, with: linoleic acid",,Kii,115 ± 60 µM
CTVF,"Protein farnesyltransferase (Rattus norvegicus, UniProt Q02293+Q04631)","substrate, stopped-flow fluorescence",peptide,"pH 7.8, 25 °C, single turnover",,farnesylation rate constant,0.4 ± 0.04 s⁻¹
O=C(Nc1ccn(Cc2ccc(O)cc2C(F)(F)F)n1)c1c(F)cccc1F,"Protein orai-3 (ORAI3, Homo sapiens, UniProt Q9BRQ5)","ion current, inhibitor, whole-cell patch clamp",,"concentration not given, with: 2-APB",relative to: 2-APB-elicited over STIM1-activated currents,fold change in sensitivity,~10 fold
"Ac-GRPCG-NH2 (N-acetyl, C-amide)","Fibroblast growth factor 2, with pentraxin 3 (Homo sapiens, UniProt P09038)","binding to PTX3, competitor, surface plasmon resonance",peptide,with: 150 nM free FGF2,,ID50,> 3000 µM
RDAAPLPRPGAVLKDFTV (LAGE-1 (111-128); sequence looked up),HLA-DPB1*0401,"peptide binding, biotinylated peptide competition",peptide,,"relative to: peptide over reference peptide, lower = stronger binding",relative IC50,> 7300
Cc1ccc2c(c1)sc(-c1ccc(N(C)C)cc1)[n+]2C,"Insulin, fibrils (INS, Bos taurus, UniProt P01317)",,amyloid fibrils,1 µM,relative to: pH 3.0 over pH 7.5,fluorescence increase,57.1 fold
CSc1nc2c([nH]1)c(=O)n(C)c(=O)n2C,"Androgen receptor (AR, Homo sapiens, UniProt P10275)","reporter gene, antagonist, PSA-luciferase",HeLa-A6,"10 µM, 24 h, with: 5 nM dihydrotestosterone",relative to: maximal activity,remaining activity,119%
"Ac-GPSLNPFDEED-NH2 (N-acetyl, C-amide)","EHD1 EH domain, mouse",ITC,peptide,"pH 7.0, 20 °C, 0 mM KCl, second titration",,TΔS,-3.4 kcal/mol
Cn1c(=O)c2[nH]c(SCc3ccccc3)nc2n(C)c1=O,Nr3c1,"reporter gene, antagonist, MMTV-luciferase",T47D/A1-2,"10 µM, 24 h, with: 5 nM dexamethasone",relative to: maximal activity,remaining activity,127%
Nc1nc2c(ncn2[C@@H]2O[C@@H]3COP(=O)(O)O[C@H]3[C@H]2O)c(=O)[nH]1,"Cnga2 (Rattus norvegicus, UniProt Q00195, C460W/del61-90/E583M)","agonist, inside-out patch clamp",,+50 mV,relative to: compound over cAMP,relative maximal current,0.16 ± 0.08
COc1ccc(-n2nc(C(N)=O)c3c2C(=O)N(c2ccc(N4CCCCC4=O)cc2)CC3)cc1,F10,chromogenic anti-FXa,"healthy humans, plasma","2.5 mg twice daily, day 4 steady state, geometric mean, LMWH-calibrated",,trough plasma anti-factor Xa activity,0.24 IU/mL
O=S(=O)(O)c1cc(N=C=S)ccc1CCc1ccc(N=C=S)cc1S(=O)(=O)O,"SLC4A1 (Homo sapiens, UniProt P02730)",chloride exchange,human red blood cells,"pH 7.2, 0 °C, no chloride gradient",,ID50,0.38 µM and 0.19 µM and 0.28 µM and 0.24 µM
CCCCCCCCCCSc1nc2c([nH]1)c(=O)n(C)c(=O)n2C,Nr3c1,"reporter gene, antagonist, MMTV-luciferase",T47D/A1-2,"10 µM, 24 h, with: 5 nM dexamethasone",relative to: maximal activity,remaining activity,88%
O=c1cc(-c2ccc(O)c(O)c2)oc2cc(O)cc(O)c12,CASP4,,,"33 µM, with: LEHD substrate",relative to: solvent control,remaining activity,9.74%
CC(C)[C@H](NC(=O)[C@H](CCCNC(=N)N)NC(=O)[C@@H](NC(=O)[C@H](CCC(N)=O)NC(=O)[C@H](CCC(N)=O)NC(=O)[C@@H](NC(=O)[C@H](Cc1c[nH]c2ccccc12)NC(=O)[C@@H]1CCCN1C(=O)[C@H]1CCCN1C(=O)[C@H](Cc1ccccc1)NC(=O)[C@H](CO)NC(=O)CNC(=O)[C@H](CCCNC(=N)N)NC(=O)[C@H](CCCNC(=N)N)NC(=O)[C@H](CCCNC(=N)N)NC(=O)[C@H](CCCNC(=N)N)NC(=O)[C@H](CCCNC(=N)N)NC(=O)[C@@H](N)CCCNC(=N)N)C(C)C)[C@@H](C)O)C(=O)O,"Disks large homolog 4, PDZ3 domain (Homo sapiens, UniProt P78352)","binding, surface plasmon resonance",,"pH 7.5, 25 °C",,kon,1.88e+06 M⁻¹ s⁻¹
CC(=O)N[C@@H](CCC(=O)O)C(=O)N[C@H](C(=O)N[C@@H](CC(C)C)C(=O)N[C@H](C(=O)N[C@@H](CCCNC(=N)N)C(=O)N1CCC[C@H]1C(=O)N[C@@H](CCCCN)C(=O)N1CCC[C@H]1C(=O)N[C@@H](CC(C)C)C(=O)N[C@@H](CC(C)C)C(=O)N[C@@H](CC(C)C)C(=O)N[C@@H](CCCCN)C(=O)N[C@@H](CC(C)C)C(=O)N[C@@H](CC(C)C)C(=O)N[C@@H](CCCCN)C(=O)N[C@@H](CO)C(=O)N[C@H](C(=O)NCC(=O)N[C@@H](C)C(=O)N[C@@H](Cc1ccc(O)cc1)C(N)=O)C(C)C)C(C)C)[C@@H](C)O,"Protein S100-B (Homo sapiens, UniProt P04271)","binding, NMR line shape, fixed Kd",,"35 °C, low salt",,koff,160 ± 30 s⁻¹
CSCC[C@H](NC(=O)NC1(c2ccccc2)CCN(Cc2cncn2Cc2ccc(-n3cc(COCCCCCCNC(=O)c4ccc(N)cc4)nn3)cc2)CC1)C(=O)O,"Geranylgeranyl transferase type I (Homo sapiens, UniProt P49354+P53609)","enzyme activity, inhibitor, fluorescence",,with: dansyl-K-Ras C-terminal peptide,relative to: guanidyl-gallate derivative,relative potency,~230
"Ac-YESTNPFTAK-NH2 (N-acetyl, C-amide)","EHD1 EH domain, mouse",ITC,peptide,"pH 7.0, 20 °C, 0 mM KCl, first titration",,ΔS,-22.7 cal/mol/K
O=Cc1ccccc1,aldehyde oxidase F13 (Pseudomonas sp. MX-058),"substrate, peroxidase-coupled H2O2",,"pH 7.0, 30 °C, with: O2 co-substrate",,Km,8.71 mM
Cc1c(-c2cccc(NC(=O)c3ccc(F)c(F)c3)c2)nc2ncccn12,"GPR32 (Homo sapiens, UniProt O75388)","β-arrestin recruitment, agonist, PathHunter",CHO cells expressing GPR32,concentration not given,relative to: vehicle,efficacy,60.8%
CC(C)Cc1nn(C)c(=O)c2c(SCCCO)n(Cc3cccc4ccccc34)cc12,"Monocarboxylate transporter 1 (Slc16a1, Mus musculus, UniProt P53986)",inhibitor,MCF7 expressing Slc16a1,with: 14C-lactate,,lactate uptake,inhibited
CN(Cc1cnc2nc(N)nc(N)c2n1)c1ccc(C(=O)N[C@@H](CCC(=O)O)C(=O)O)cc1,"SLC19A1 (Homo sapiens, UniProt P41440, S313A)","transport, substrate",K562 transfected (K500E),"180 s, 37 °C",,Vmax,0.5 ± 0.04 pmol/mg protein/min
CC(=O)Oc1cccc2c1C(=O)c1c(OC(C)=O)cc(C(=O)O)cc1C2=O,CASP4,,,"33 µM, with: LEHD substrate",relative to: solvent control,remaining activity,12.5%
CC[C@H](C)[C@H](NC(=O)[C@@H](NC(=O)[C@@H](N)C(C)C)C(C)C)C(=O)N[C@H](C)C(N)=O,APP,"amyloid aggregation, inhibitor, fluorescence",,"4 µM, 24 h",,inhibition,14.6%
COc1ccc(-n2nc(C(N)=O)c3c2C(=O)N(c2ccc(N4CCCCC4=O)cc2)CC3)cc1,F10,anti-factor Xa activity,"human, plasma",,,PK-PD slope,0.0159 IU/ng
catalase,"NADH:cytochrome c oxidoreductase, rat",,lysed brain mitochondria,"1 U, with: dopamine 200 µM plus tyrosinase",,protection of complex I/III activity,no effect
CC(C)C[C@H](NC(=O)[C@@H](NC(=O)[C@@H](N)C(C)C)C(C)C)C(=O)N[C@@H](C)C(N)=O,APP,"amyloid aggregation, inhibitor, fluorescence",,"2 µM, 24 h",,inhibition,42.2%
CCN(CC)c1ccc(C=O)cc1,"ALDH9A1 (Homo sapiens, UniProt P49189)","enzyme activity, inhibitor, absorbance",,,,KI (inactivation),0.054 µM
CC(C(=O)O)c1ccc2c(c1)[nH]c1ccc(Cl)cc12 (centres unmarked),CASP4,,,"33 µM, with: LEHD substrate",relative to: solvent control,remaining activity,12.2%
Cc1cnc(-c2ccnc(C(C)(C)O)n2)cc1-n1c(C)cc(OCc2ncc(F)cc2F)c(Cl)c1=O,p38α–MK2 complex,"binding, surface plasmon resonance",,with: 10 nM p38α,relative to: CDD-110,complex half-life increase,4 fold
CC[C@H](C)[C@@H]1NC(=O)[C@H]([C@@H](C)O)NC(=O)[C@H](Cc2ccc(O)cc2)NC(=O)[C@H](CCCNC(=N)N)NC(=O)[C@@H]2CCCN2C(=O)[C@H]2CCCN2C(=O)[C@H]([C@@H](C)O)NC(=O)[C@H](C(C)C)NC(=O)[C@H](C(C)C)NC(=O)[C@H](CCCCN)NC(=O)[C@H](CO)NC(=O)[C@H](CCC(N)=O)NC(=O)[C@H](CO)NC(=O)[C@H](Cc2ccc(O)cc2)NC(=O)[C@H](CO)NC(=O)[C@H](Cc2ccc(O)cc2)NC(=O)[C@@H]2CCCN2C(=O)[C@H](CO)NC(=O)[C@H](CC(C)C)NC(=O)[C@H](CC(C)C)NC(=O)[C@H](C)NC(=O)[C@H](C)NC1=O,"Amyloid-beta precursor protein, Aβ40 (APP, Homo sapiens, UniProt P05067)","proteolysis by proteinase K, item: amyloid beta",,"1.4 µM, 24 h preincubation, 37 °C, with: 20 µM amyloid beta, proteinase K 0.5 µg/mL",,half-time of degradation,18 min
CC(=O)N[C@H]1[C@H](Oc2ccc3c(C)cc(=O)oc3c2)O[C@H](CO)[C@@H](O)[C@@H]1O,"O-GlcNAcase (human, wild type)",substrate,,"up to 2 mM, 1% DMSO",,kcat/Km,7000 M⁻¹ s⁻¹

# Repeated from above:
Molecule,target,assay,test system,conditions,scale,endpoint,value
COc1ccc(-n2nc(C(N)=O)c3c2C(=O)N(c2ccc(N4CCCCC4=O)cc2)CC3)cc1,F10,chromogenic anti-FXa,"healthy humans, plasma","2.5 mg twice daily, day 4 steady state, geometric mean, LMWH-calibrated",,trough plasma anti-factor Xa activity,0.24 IU/mL
O=S(=O)(O)c1cc(N=C=S)ccc1CCc1ccc(N=C=S)cc1S(=O)(=O)O,"SLC4A1 (Homo sapiens, UniProt P02730)",chloride exchange,human red blood cells,"pH 7.2, 0 °C, no chloride gradient",,ID50,0.38 µM and 0.19 µM and 0.28 µM and 0.24 µM
